Assay results collected from several papers.
± gives the spread as reported.

Compound = COc1ccc(C)cc1NC(=O)OC1CC2CCCC(C1)N2Cc1ccc(CC[18F])cc1 (stereo not drawn); test system = BALB/c mice, EMT6 tumour, lung; conditions = 30 min; endpoint = tissue uptake; result = 16.3 ± 1.14 %ID/g
Compound = COc1cc(C(=O)NCCOCCOCCOCCNC(=O)c2ccc([18F])nc2)ccc1NC(=O)C1NC(CC(C)(C)C)C(C#N)(c2ccc(Cl)cc2F)C1c1cccc(Cl)c1F (stereo not drawn); test system = athymic male mice, SJSA-1 xenograft, small intestine; conditions = 2 h; endpoint = tissue uptake; result = 1.39 ± 0.83 %ID/g
Compound = NC(=O)[C@@H](CCCCNC(=O)CNC(=O)CCC(=O)NCCc1c[nH]cn1)NC(=O)[C@@H](Cc1ccc(O)cc1)NC(=O)[C@@H](CCCCNC(=O)CNC(=O)CCC(=O)NCCc1c[nH]cn1)NC(=O)Cc1ccc(CN2CCN(CC(=O)O)CCN(CC(=O)O)CC2)cc1 [fluorine-18 labelled]; test system = tumour-bearing nude mice, kidney; conditions = intravenous, 1.04 MBq, 1 h, no pretargeting; endpoint = tissue uptake; result = 3.33 ± 0.56 %ID/g
Compound = CCCC[C@H](NC(=O)CN1CCC(NC(=O)CN2CCC(NC(=O)CN3CCN(CC(=O)O)CCN(CC(=O)O)CCN(CC(=O)O)CC3)CC2)CC1)C(=O)N[C@H]1CC(=O)NCCCC[C@@H](C(N)=O)NC(=O)[C@H](Cc2c[nH]c3ccccc23)NC(=O)[C@H](CCCNC(=N)N)NC(=O)[C@@H](Cc2ccccc2)NC(=O)[C@H](Cc2c[nH]cn2)NC1=O [gallium-68 labelled]; test system = C57BL/6J mice male B16-F10 tumour, thyroid; conditions = 1 h post injection, unblocked; endpoint = tissue uptake; result = 0.7 ± 0.3 %ID/g
Compound = C/C=C/C=C/C/C=C/CCCCCCCc1cccc(O)c1O; test system = female Kunming mice, tumour-bearing, liver; conditions = intravenous, 10 mg/kg, 2 h; endpoint = tissue concentration; result = 22800 ± 2650 ng/g
Compound = CCCC[C@H](NC(=O)CCOCCOCCNC(=O)CN1CCN(CC(=O)O)CCN(CC(=O)O)CCN(CC(=O)O)CC1)C(=O)N[C@H]1CC(=O)NCCCC[C@@H](C(N)=O)NC(=O)[C@H](Cc2c[nH]c3ccccc23)NC(=O)[C@H](CCCNC(=N)N)NC(=O)[C@@H](Cc2ccccc2)NC(=O)[C@H](Cc2c[nH]cn2)NC1=O [gallium-68 labelled]; test system = C57BL/6J mice male B16-F10 tumour, blood; conditions = 1 h post injection, unblocked; endpoint = tissue uptake; result = 0.5 ± 0.2 %ID/g
Compound = C[C@]12CC[C@H](OCC[18F])C[C@H]1CC[C@@H]1[C@@H]2CC[C@]2(C)[C@@H](c3ccc(=O)oc3)CC[C@]12O; test = micro-PET; test system = BALB/c nude mice, SMMC-7721 xenograft, bladder; conditions = intravenous, 7.4 MBq, 120 min; endpoint = tissue uptake; result = 33.1 ± 5.81 %ID/g
Compound = COC(=O)C[C@](O)(CCCC(C)(C)OC(C)=O)C(=O)O[C@@H]1C(OC)=C[C@]23CCCN2CCc2cc4c(cc2[C@H]13)OCO4; test system = CD1 mice, esophagus; conditions = oral, 1 mg/kg, 2 h; endpoint = tissue concentration; result = not detected
Compound = [3H]c1sc(C)nc1C=C(C)C1CC2C(CCCC(C)C(O)C(C)C(=O)C(C)(C)C(O)CC(=O)O1)N2CCO (stereo not drawn); test = LC-MS/MS; test system = CD2F1 mice tumour-bearing, kidney; conditions = intravenous, 2.2 nmol/kg, 6 h; endpoint = tissue concentration; result = 2630 ± 130 ng/g

Repeated from above:
Compound = COc1cc(C(=O)NCCOCCOCCOCCNC(=O)c2ccc([18F])nc2)ccc1NC(=O)C1NC(CC(C)(C)C)C(C#N)(c2ccc(Cl)cc2F)C1c1cccc(Cl)c1F (stereo not drawn); test system = athymic male mice, SJSA-1 xenograft, small intestine; conditions = 2 h; endpoint = tissue uptake; result = 1.39 ± 0.83 %ID/g
